Published values collected from several papers.
A part holds a random share of what one study measured. Positions count from the first letter of the parent shown.

Study 1 — technique: RNA Bind-n-Seq; molecule type: RNA; sample: in vitro; concentration: 200 nM; notes: whole 134-nt RNA, ends assumed; together with: 150 mM KCl; baseline: input library; reading: higher = stronger binding
Target: Ras GTPase-activating protein-binding protein 1, full length (G3BP1, Homo sapiens, UniProt Q13283)
Chain of UniProt Q13283 (whole entry, looked up): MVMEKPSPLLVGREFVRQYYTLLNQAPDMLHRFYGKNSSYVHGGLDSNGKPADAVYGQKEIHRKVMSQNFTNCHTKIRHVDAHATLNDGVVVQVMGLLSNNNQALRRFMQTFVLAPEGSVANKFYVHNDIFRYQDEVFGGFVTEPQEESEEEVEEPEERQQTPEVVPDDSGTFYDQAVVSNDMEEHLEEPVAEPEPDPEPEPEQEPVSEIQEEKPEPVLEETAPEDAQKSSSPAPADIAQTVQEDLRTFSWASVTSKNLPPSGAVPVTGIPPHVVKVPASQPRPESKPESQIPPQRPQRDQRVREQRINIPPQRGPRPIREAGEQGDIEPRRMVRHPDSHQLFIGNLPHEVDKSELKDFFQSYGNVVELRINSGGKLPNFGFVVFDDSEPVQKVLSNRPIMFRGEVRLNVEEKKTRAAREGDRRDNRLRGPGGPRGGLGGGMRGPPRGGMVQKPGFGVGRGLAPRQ
Constant ends, left off below: GGGAGUUCUACAGUCCGACGAUC … UGGAAUUCUCGGGUGUCAAGG
Oligonucleotide	log2 enrichment
AAGUCCUGUGCUACACAUCGUAUGUACCGAAUCGGGAAAAAAAGGGUGGGAAAGGGAAAGUAUUAUGUUACGCCGUUCGGAUCUGCACUU	0.164
UGGCCCUGGUGGCAUGCGGGGAGGAAGAGGAGGCCUCAUGGAUCGUGGUGGUCCCGGUGGAAUGUUCAGAGGUGGCCGUGGUGGAGACAG	0.406
GUCCUGUGCUACACAUCGUAUGUACCGAAUCGGGUUUUUUUGGGAAAAAAAGGGAGGGAAAGUAUUAUGUUACGCCGUUCGGAUCUGCAC	-0.117
UAACUUUAGAGGUGGAUCUGAUGGAUAUGGCAGUGGACGUGGAUUUGGGGAUGGCUAUAAUGGGUAUGGAGGAGGACCUGGAGGUGGCAA	0.427
ACCAUGCAGGUGGGCAUCUUUGGGAAGUGGGGCAAGGGGGGGAUAGGGAGGGGGGUAACACUUUGGGAACAGGUGGUCCCAGGUCGGUUC	1.58
UCAAGUCCUGUGCUACACAUCGUAUGUACCGAAUCGGAAAAAAAGGAGGUUUGGAAAGUAUUAUGUUACGCCGUUCGGAUCUGCACUUCC	-1.33
GCAGGAAGUAAAAACAAAUGGAAAUGCUUCCGAUAGUGGCAGGGGUGGGGGUUGCUAAGGAAAGGGUGGGAUGGGAGUGGGUAAAGAGUU	1.03
GCAGGAAGUAAAAACAAAUGGAAAUGCUUCGGAUAGUGGCAGGGGUGGGGGUUGCUAAGGAUAGGGUGGGAUGGGAGUGGGUAAAGAGUU	0.746
ACAAAGCAGGUGGGCAUCUUUGGGAAGUGGGGCAAGGGGGGGAUAGGGAGGGGGGUAACACUUUGGGAACAGGUGGUCCCAGGUCGUUUC	1.51

Study 2 — technique: DHFR PCA, deep sequencing; sample: yeast; together with: (+)-ABA 0.39 µM; baseline: wild-type fitted maximum; reading: higher = stronger binding
Target: ABI1, truncated, D143A, DHFR fusion (Arabidopsis thaliana)
Notes: methotrexate growth selection, single substitutions
Parent: PYL1, truncated, DHFR fusion (Arabidopsis thaliana); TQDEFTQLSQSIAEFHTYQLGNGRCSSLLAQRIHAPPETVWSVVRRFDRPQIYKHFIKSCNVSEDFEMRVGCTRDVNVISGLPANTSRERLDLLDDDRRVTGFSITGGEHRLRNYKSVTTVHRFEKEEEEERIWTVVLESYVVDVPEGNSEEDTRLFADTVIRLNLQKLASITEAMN; partner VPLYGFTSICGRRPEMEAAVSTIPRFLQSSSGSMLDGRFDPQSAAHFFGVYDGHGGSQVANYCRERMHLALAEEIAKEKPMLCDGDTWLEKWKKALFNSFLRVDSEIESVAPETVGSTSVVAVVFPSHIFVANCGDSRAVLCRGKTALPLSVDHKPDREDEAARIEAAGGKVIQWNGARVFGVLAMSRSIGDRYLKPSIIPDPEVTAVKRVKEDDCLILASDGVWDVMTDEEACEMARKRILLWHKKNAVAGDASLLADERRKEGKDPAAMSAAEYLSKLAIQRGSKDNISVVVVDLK
Variant	relative binding score [%]
E125S	56.4
L28F	2.73
T86W	90
E147M	12.6
V136C	8.06
A158H	25.8
T101A	12.2
F66R	5.99
D159N	33.6
R99I	-8.06
S27Y	8.68
D92C	5.7

Study 3 — target: CCNE2, cyclin fold, Cln2 fusion (human); technique: yeast growth competition, sequencing; sample: yeast; notes: strong parent motif; baseline: not given; reading: higher = stronger binding
Parent: SCAPER docking peptide (human); SNARRSLNFGGST
Variant	normalised enrichment score
N2I	0.338
N2E	0.576
N8M	0.755
S6R	5.31
G10H	1.2
R5C	0.11
R4Y	0.277
S6F	1.86
S12L	1.83
A3S	0.269
F9S	0.183
F9A	0.193
S6D	0.247
N2Y	0.905
F9D	0.646
S12I	1.57
T13A	0.815
N2V	0.98
G11K	1.46
N8T	1.05
G10E	1.31
N8D	1.16
R5D	-0.241
S12D	1.54
S12R	0.0889

Study 4 — technique: protein-binding microarray; molecule type: double-stranded DNA, one strand shown; sample: in vitro; concentration: 940 nM top; notes: 60-bp whole probe; together with: salmon DNA 0.4 mg/ml; baseline: random background probes; reading: higher = stronger binding; constant ends, left off below: GCCTAGCAC … GTCTTGATTCGCTTGACGCTGCTG
Target: Interferon regulatory factor 5, full length, phosphomimetic (IRF5, Homo sapiens, UniProt Q13568-2, residues 1-514, S451D/S453D/S456D/S462D)
Oligonucleotide	fitted relative affinity [z-score]
TTAGGTAGCCTTATCCTTTAGTGCTAG	-0.435
GACGGATTGCTTTTCCTGACGTGCTAG	-0.437
TTAGGACTGGACGTTCGGTTAGTGCTA	-0.397
GACGGTCTCCTTCTCCTGGCGTGCTAG	0.756
GACGGTATGGACTATCGGGACGTGCTA	-0.208
GACTGACTGCTTATCCTGACGTGCTAG	-0.0331
GACGATATCGGATATCGAGACGTGCTA	0.0989
GACGATATAGGGTTTCGAGACGTGCTA	1.1
GCCACCGGTCTCCATGGGTCGTGCTAG	-0.289
TCTGTTTCTGATATGGTATGGTGCTAG	1.23
GACGGTCTCCTTCTTCTGACGTGCTAG	0.717
GGGCATTTGGAAAATGAAAATGTGCTA	-0.398
TCACTTTTCATTACTGCACTGTGCTAG	1.7
ATAACTTTTTTTTTTCCCTGGTGCTAG	0.93
TTAGATAGCAGTTTCGATTAGTGCTAG	6.94
GACGGGCTCCTTTTCCTGACGTGCTAG	0.116
GACGGTTCCCTTTTCCTGAAGTGCTAG	0.75
GACGGTTTCGCACTGGGGACGTGCTAG	4.02
CCACTCTTCCTTTACTTTCTGTGCTAG	2.6

Further values, each from its own experiment
Molecule	target	assay	system	conditions	scale	measurement	result
PhoQ, residues 284 288 289 292 302 303 SIHLQL	PhoP, residues 12 14 15 18 19 IQFRS (Escherichia coli, UniProt P23836)	Sort-seq, item: YFP reporter	E. coli	PhoQ-PhoP variant library, together with: 10 µM Mg2+	baseline: high Mg2+ state, higher = stronger signaling	fold induction	13.7

For quick reference, copied from above (study 4):
Oligonucleotide	fitted relative affinity [z-score]
GACGGTATGGACTATCGGGACGTGCTA	-0.208
GACTGACTGCTTATCCTGACGTGCTAG	-0.0331
GACGATATCGGATATCGAGACGTGCTA	0.0989
GACGATATAGGGTTTCGAGACGTGCTA	1.1
